Results pooled from the literature.
Each numbered part is a random draw from the data of one study; scales do not carry over between parts.

Study 1 — method: protein-binding microarray; molecule type: double-stranded DNA, one strand shown; sample: in vitro; tested at: 250 nM; notes: 60-bp whole probe; together with: salmon DNA 0.4 mg/ml; baseline: random background probes; direction: higher = stronger binding; all sequences stand within: GCCTAGCAC … GTCTTGATTCGCTTGACGCTGCTG
Target: Interferon regulatory factor 7, full length, phosphomimetic (IRF7, Homo sapiens, UniProt Q92985, residues 1-503, S101K/S471D/S472D/S475D/S476D/S477D/S483D/S484D/S487D)
Target sequence (chain): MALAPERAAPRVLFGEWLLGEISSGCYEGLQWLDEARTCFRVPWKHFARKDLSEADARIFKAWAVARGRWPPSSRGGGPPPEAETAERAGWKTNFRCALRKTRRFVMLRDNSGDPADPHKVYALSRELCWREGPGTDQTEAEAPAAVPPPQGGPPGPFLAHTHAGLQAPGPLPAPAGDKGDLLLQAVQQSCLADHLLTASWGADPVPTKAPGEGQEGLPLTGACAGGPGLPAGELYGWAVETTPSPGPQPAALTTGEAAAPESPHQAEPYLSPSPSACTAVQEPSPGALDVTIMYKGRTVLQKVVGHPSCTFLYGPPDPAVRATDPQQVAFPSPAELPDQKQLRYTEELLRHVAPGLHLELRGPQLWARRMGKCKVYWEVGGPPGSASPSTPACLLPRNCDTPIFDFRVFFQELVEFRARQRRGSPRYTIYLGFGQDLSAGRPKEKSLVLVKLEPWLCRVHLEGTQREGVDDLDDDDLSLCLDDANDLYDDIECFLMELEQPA
| Oligonucleotide | log fluorescence [z-score] |
| --- | --- |
| TACGGTCTCGGTCTCGGGACGTGCTAG | 1.09 |
| TTAGGTTACGGTATCGGTTAGTGCTAG | 1.83 |
| TTAGATCTCAGTTTCCATTAGTGCTAG | 2.62 |
| TCAGAACTGAGACTGGATTAGTGCTAG | -0.0413 |
| GACGATGTCAGTATCGAGACGTGCTAG | -0.28 |
| GACGGCCTGGGTCTCGGGACGTGCTAG | -0.613 |
| TTAGATCTCAGTTACGATTAGTGCTAG | 0.788 |
| GACGTTATCGGGTTTCGGGACGTGCTA | 2 |
| GAAGGTCTCGGACTGGGGACGTGCTAG | -0.188 |
| GACGGACTGCTTATACTGACGTGCTAG | -0.606 |
| GACGAACTCGGGTATCGAGACGTGCTA | -0.216 |
| GACGGTATAGACACTGGGGACGTGCTA | -0.412 |
| TTAGGACTGATACTGCTTTAGTGCTAG | -0.135 |
| GACGGACTGGACACTGCGGACGTGCTA | -0.716 |
| GACGGATTCGACTTTCGGGACGTGCTA | 3.07 |
| GACGGTTTCGACTTTAGGGACGTGCTA | 9.71 |
| GACGGTTTCGTGACTGGGGACGTGCTA | 2.48 |
| TCATTTTCGTTTTTATTACTGTGCTAG | 9.3 |

Study 2 — method: RNA Bind-n-Seq; molecule type: RNA; sample: in vitro; tested at: 365 nM; baseline: no-protein control; direction: higher = stronger binding
Target: RNA binding protein fox-1 homolog 2, RRM domain, GST-SBP tag (RBFOX2, Homo sapiens, UniProt O43251-10, residues 100-194)
Notes: natural RNA segment, single round, ends assumed
All sequences stand within: GGGAGUUCUACAGUCCGACGAUC … UGGAAUUCUCGGGUGCCAA
Construct (chain): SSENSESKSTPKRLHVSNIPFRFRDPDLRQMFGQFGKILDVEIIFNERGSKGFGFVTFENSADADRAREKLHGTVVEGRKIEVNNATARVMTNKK
| Oligonucleotide | RBNS enrichment (R) |
| --- | --- |
| AUAGACCUUUCCUUCCGUACCUGAGAGCUGCAGGUACCAAGGGAUCUACCGUGCAGGGACUGGGCAAGCACAGCUUACUGCUAUAAUUGGGUAUAUAAGGCUUAAGAAUU | 0.47 |
| CACCCCCUUUACAGCUCCCAACUUGGGUCCUGUAAAUGGAGGUGUCAUUGCCAUCACCAUCGCCAGCAUUGAGGAAGAGCCUCUGAAGUGUCAGGACUUUGCAGUGUAGC | 0.242 |
| UGGGCCUUCCCCUUCCCUCAAGCCAGGGCUCCUCCUCCUGUCGUGGGCUCAUUGUGACCACUGGCCUCUCUACAGCACGGCCUGUGGCCUGUUCAAGGCAGAACCACGAC | 0.311 |
| UGUAUGUUUAAAAGAUAGCAUCUAGAAUGAUCACUUGUGCUUAGCGUAGCAUUGUAAGCGCUGAAGUAUAUAUUUUCUUCAGUAAGUCUCUUUAAAAUUUCAAGUGUUAU | 1.93 |
| UUGUCCACAGACUGCUGGGGUCACUUCUUUGCCCACGGGCUCCCUGCUCCCCCAGUUUUUUUUCUCUCUUUGUUAACAAAUGUGUCUGAGUCUUGGAAAACACCCCAACC | 2.19 |
| UGGCUCUCUCUCCCCCACUUGUUCUGACUUAGGAUAAUGAUCUCUAUUUUGUUUGUUUCUCAAGUGACUUGUGGACUUGUGCUGUAUAAACUGUAUUAAAAAGGCUCUGU | 0.63 |
| UGUCGUCAGAGGCUUGUGAUUAACUGUGGCGGCAGACACAGCUUGUCCACAGCUUGGGCCAGGCUUCCCCUGUCCUCCCACCGGUCGGCUGCUUGGCAAGGCUGUUCAGG | 0.578 |
| CCAAAUAGUGAUAUAUAAGAGAAAAUCUGUGCUUCAGAGUUUGAUCAGGGCCAUCUCUCCCAACUCUGCUGGAACUGAGAGAAUGCACCUGAUGUUGUCUCCAUUUUAGA | 0.624 |
| UUGAAGAAACUUGCAGUGUCGAGUGCUGCUUGACAUGCCAGAUGUGUCAGACACUCAACUGACAUUACUACUUUAGUUCCUUUUGCUUUUUUCAUUUAUCUGUGGAAACA | 0.391 |
| AUGGUGGCUUGAGUUGUCACUUGGUCCCCUCCGCCCCUCGGGUGGCCCCCUUUGCCACGUCCCCUUAGCUUAGUGAUCAGGUGUGAGAGUGGCCAUUUCCUUACCUUUGA | 0.382 |
| GUUAAGAGCUGAGCACACCACAGGAAAGGAGGGAGGAUGCUGUGUGAGAGCCAUGCUGUCAGGAGCAAGCUUGCUGCUCCUGUGCUGCCCUGGCCCUGGCCUUGCUUGCC | 0.784 |
| GUCCACGUUCCAGCCGAGUCACUGCCUGACCGGCUCCAUGGCAGCUCCCCAUCUUCCCUAGAGGCUGCCUGCGCAUCUGGAGCCUGCGCUCCGGCUCAGCGACCUUUCCU | 0.439 |

Study 3 — method: RNA Bind-n-Seq; molecule type: RNA; sample: in vitro; tested at: 200 nM; notes: whole 134-nt RNA, ends assumed; together with: 150 mM KCl; baseline: input library; direction: higher = stronger binding
Target: Fragile X messenger ribonucleoprotein 1, C-terminal low-complexity region (Fmr1, Mus musculus, UniProt P35922)
All sequences stand within: GGGAGUUCUACAGUCCGACGAUC … UGGAAUUCUCGGGUGUCAAGG
| Oligonucleotide | log2 enrichment |
| --- | --- |
| UCCUGUGCUACACAUCGUAUGUACCGAAUCAAACCCCCCCAAAUUUAAACCCCCCCAAAAAAGUAUUAUGUUACGCCGUUCGGAUCUGCA | 0.438 |
| CCUCAAGUCCUGUGCUACACAUCGUAUGUACCGAAUCGGUUUGGAGGUUUGGAAAGUAUUAUGUUACGCCGUUCGGAUCUGCACUUCCAG | -0.13 |
| GUCCUGUGCUACACAUCGUAUGUACCGAAUCGGGUUUUUUGGGUUUUUUGGUUUUUUGGAAAGUAUUAUGUUACGCCGUUCGGAUCUGCA | -0.654 |
| GCAGGAAGUAAAAACAAAUGGAAAUGCUUCGGAUAGUGGCAGGCGUGGGGGUUGCUAAGGAAAGGGUGGGAUGGGAGUGGGUAAAGAGUU | 0.472 |
| GUCCUGUGCUACACAUCGUAUGUACCGAAUCAAACCCCCCCAAAUUUAAACCCCCAAAAAAGUAUUAUGUUACGCCGUUCGGAUCUGCAC | 0.122 |
| AGUCCUGUGCUACACAUCGUAUGUACCGAAUCGGGAAAAAGGGUGGGAAAAAAAGGGAAAGUAUUAUGUUACGCCGUUCGGAUCUGCACU | 0.144 |
| CACAGACAACACGCACCCACACAGACACAGAGGGAAGGGGUUGGGAUGGGGACAGGCUGCACAGCAGGGCGGGGUAGGACCCCAGCCCCU | 1.28 |
| GUCCUGUGCUACACAUCGUAUGUACCGAAUCGGGAAAAAGGGAAAAAAAGGGUUUGGGAAAGUAUUAUGUUACGCCGUUCGGAUCUGCAC | -0.318 |
| CACAGACAACACGCACCCACACAGACACAGAGGGAAGGGGUUGGGAUGGGGACAGCGUGCACAGCAGGGCGGGGUAGGACCCCAGCCCCU | 1.26 |
| CCAUAGACCCCUUUCUUCUCCCCUUCCCCACGGUAGGAACAUAGCGUGUUUAUAUUUUAUGGCCAAACUAUUUUGAAUUUUGUUGUCCGG | -0.0337 |
| CCUCAAGUCCUGUGCUACACAUCGUAUGUACCGAAUCGGGUUGGUUGGUUGGGAAAGUAUUAUGUUACGCCGUUCGGAUCUGCACUUCCA | 0.116 |
| UCCUGUGCUACACAUCGUAUGUACCGAAUCGGGGAAAAAGGGGAAAAAAAGGGGAGGGGAAAGUAUUAUGUUACGCCGUUCGGAUCUGCA | 0.544 |
| UAACUUUAGAGGAGGAUCUGAUGGAUAUGGCAGUGGACGUGGAUUUGGGGAUGGCUCUAAUGGGUAUGGAGGAGGACCUGGAGGUGGCAA | 0.268 |
| AAGUCCUGUGCUACACAUCGUAUGUACCGAAUCGGUUUUUGGAAAGGUUUUUUUGGAAAGUAUUAUGUUACGCCGUUCGGAUCUGCACUU | -1.12 |

Study 4 — method: aptamer microarray, sandwich; molecule type: DNA with 2'F-ANA; sample: in vitro; tested at: 200 nM; together with: Cy3 exosite-II aptamer, 400 nM; direction: higher = stronger binding; oligonucleotide: GGTTGGTGTGGTTGG
Target: Prothrombin, mature alpha-thrombin (F2, Homo sapiens, UniProt P00734)
Notes: whole 15-mer aptamer, many near background
| Modification | mean fluorescence intensity |
| --- | --- |
| 2'F-ANA at 1 5 9 10 11 12 13 14 | 44.3 a.u. |
| 2'F-ANA at 3 5 6 7 12 14 15 | 62.8 a.u. |
| 2'F-ANA at 1 3 4 9 12 13 | 265 a.u. |
| 2'F-ANA at 5 6 7 8 9 13 14 | 45.5 a.u. |
| 2'F-ANA at 1 2 3 4 5 6 7 8 9 11 12 13 14 15 | 53.4 a.u. |
| 2'F-ANA at 6 7 9 11 12 14 | 178 a.u. |
| 2'F-ANA at 3 5 12 14 | 65.3 a.u. |
| 2'F-ANA at 4 6 7 9 11 12 | 354 a.u. |
| 2'F-ANA at 1 4 7 9 11 12 | 213 a.u. |
| 2'F-ANA at 2 4 6 8 9 10 13 14 15 | 60 a.u. |
| 2'F-ANA at 1 3 5 6 9 11 13 | 52.5 a.u. |
| 2'F-ANA at 3 6 10 12 14 | 412 a.u. |
| 2'F-ANA at 2 3 4 7 8 12 15 | 1110 a.u. |
| 2'F-ANA at 2 5 9 11 12 14 | 45.5 a.u. |
| 2'F-ANA at 1 2 3 6 11 | 177 a.u. |
| 2'F-ANA at 2 5 6 11 13 14 15 | 49 a.u. |
| 2'F-ANA at 3 4 6 7 10 11 12 13 14 15 | 174 a.u. |
| 2'F-ANA at 3 5 7 8 9 11 13 14 | 61.1 a.u. |

Excerpt of the above (study 4):
| Modification | mean fluorescence intensity |
| --- | --- |
| 2'F-ANA at 3 5 6 7 12 14 15 | 62.8 a.u. |
| 2'F-ANA at 1 3 4 9 12 13 | 265 a.u. |
| 2'F-ANA at 5 6 7 8 9 13 14 | 45.5 a.u. |
| 2'F-ANA at 1 2 3 4 5 6 7 8 9 11 12 13 14 15 | 53.4 a.u. |
| 2'F-ANA at 6 7 9 11 12 14 | 178 a.u. |
| 2'F-ANA at 3 5 12 14 | 65.3 a.u. |
| 2'F-ANA at 4 6 7 9 11 12 | 354 a.u. |
| 2'F-ANA at 1 4 7 9 11 12 | 213 a.u. |
| 2'F-ANA at 2 4 6 8 9 10 13 14 15 | 60 a.u. |
